Experimental data gathered from unrelated publications.
Each numbered part is a random draw from the data of one study; scales do not carry over between parts.

Series 1
Target: Histone acetyltransferase KAT6A, both winged helices, GST fusion (KAT6A, Homo sapiens, UniProt Q92794, residues 1-181)
Technique: protein binding microarray
Form: double-stranded DNA, one strand shown
Medium: in vitro
Concentration: not given
Setting: 8-mer, flanks averaged, mean of 2 arrays, mostly near background
Baseline: not given
Direction: higher = stronger binding
Target sequence (chain): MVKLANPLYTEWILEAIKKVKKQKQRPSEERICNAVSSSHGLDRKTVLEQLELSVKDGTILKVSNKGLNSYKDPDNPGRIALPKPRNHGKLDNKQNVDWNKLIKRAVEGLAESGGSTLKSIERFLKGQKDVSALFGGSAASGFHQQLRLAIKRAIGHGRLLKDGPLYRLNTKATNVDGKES
| Oligonucleotide | E-score |
| --- | --- |
| ATTGGTAG | -0.184 |
| ACAGCTGT | -0.154 |
| AGCCTGTC | -0.0186 |
| CCTACCCA | -0.223 |
| CTAATCGC | 0.126 |
| ACTTGAGG | -0.238 |
| GGAACGCC | 0.134 |
| CGTGATAC | 0.045 |

Series 2
Target: RNA binding protein fox-1 homolog 2, RRM domain, GST-SBP tag (RBFOX2, Homo sapiens, UniProt O43251-10, residues 100-194)
Technique: RNA Bind-n-Seq
Form: RNA
Medium: in vitro
Concentration: 365 nM
Setting: natural RNA segment, single round, ends assumed
Baseline: no-protein control
Direction: higher = stronger binding
Constant ends, left off below: GGGAGUUCUACAGUCCGACGAUC … UGGAAUUCUCGGGUGCCAA
Residues (chain): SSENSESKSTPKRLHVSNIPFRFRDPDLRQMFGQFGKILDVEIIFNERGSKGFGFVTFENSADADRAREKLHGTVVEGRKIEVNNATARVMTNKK
| Oligonucleotide | RBNS enrichment (R) |
| --- | --- |
| UCUUUAAGACAGUGCUAGAGUAGAACACGGGGCCUGUGCAUAACAAACGCCCUACUUCUAAGCUCGUCCUUAGUAGCCCAGGCUGGUCUAGAACCUCUGGUCUUCCUUUC | 0.272 |
| AAUCUGCAGACCCUCCAGCAGUUGGCUGUUGAGUCCCUGCUGUGGAAGUUCUCUUGACUAUCACCUGCUUCCAGCUACCAGGCAAGAAAGAGGGCCUCUGUUCUCAACCA | 0.309 |
| CUAGGGACGUAUCUUCAAACUCCAUUUCUUCCUCUGUAGUAGCCCAGUCCAGGACUUUGGAACCCUGGUCUCAUUCACCCCAAAUAUACUUCUUGCUGAUCAUGCGUUGU | 0.418 |
| UAUUGGUGAUUAUACGAGACUUCUAAUACAUAAAUGAACGGGUAUUGGUGCCUCUUUAUUUUAAAAAAUUUGAAGAAAAGAGCCACCUCAUAUUCAUAGGGUGUGUAUUU | 0.32 |
| UAAGAAGUAAAAUACAUCAGCAGAUUUUCAUACUAGUAUGUUGUAAUGCUGUCUUUUCUAUGGUGUAGAAUCUUUCUUUCUGAUAAGGAACGUCUCAGGCUUAGAAAUAU | 0.504 |
| UGAUUUGAAUUAAUACACACAAUAUCUGAGACACUUACACUUUUCAAAAGAUUUGUGUAUGCAUUGCCUAAUUAGAGUAGGGGGAGAAGGGCAACUAUUAUUAUCCCUAU | 0.381 |
| CACUGUGUGUGUGAUCAUGCUGGGAGGGGUAACUGCUUGGAAUUAAAAGGUUGCACUGGGUCCCUAAUCUAUUGUUUCUAUCCAUGCCUGUGCAUAUCAGACAAGCACUG | 0.584 |
| AAUCAGAGUAAUCAUAAUGCAGGGGAGACAUUCAAAUUAGAGACAAGGGAGAAGCAAUGCUGAGGAAGACCCUAGAUAGAGCUCAUUUUACUCCACCUAAUCGUUAUAUC | 1.14 |
| UUUCCUUUGUACUUUAAAAAAAAGUAUGCUAGCACUAUUGUACCUUGAAAGGAUUUCCACCAGACUGUCUUGAGUAGUGACUUCUUUGGUGAGGCAAGAAGGAUAUACAU | 10.4 |

Series 3
Target: Interferon regulatory factor 7, full length, phosphomimetic (IRF7, Homo sapiens, UniProt Q92985, residues 1-503, S471D/S472D/S475D/S476D/S477D/S483D/S484D/S487D)
Technique: protein-binding microarray
Form: double-stranded DNA, one strand shown
Medium: in vitro
Concentration: 2200 nM top
Setting: 60-bp whole probe
Added: salmon DNA 0.4 mg/ml
Baseline: random background probes
Direction: higher = stronger binding
Constant ends, left off below: GCCTAGCAC … GTGCTAGGTCTTGATTCGCTTGACGCTGCTG
Residues (chain): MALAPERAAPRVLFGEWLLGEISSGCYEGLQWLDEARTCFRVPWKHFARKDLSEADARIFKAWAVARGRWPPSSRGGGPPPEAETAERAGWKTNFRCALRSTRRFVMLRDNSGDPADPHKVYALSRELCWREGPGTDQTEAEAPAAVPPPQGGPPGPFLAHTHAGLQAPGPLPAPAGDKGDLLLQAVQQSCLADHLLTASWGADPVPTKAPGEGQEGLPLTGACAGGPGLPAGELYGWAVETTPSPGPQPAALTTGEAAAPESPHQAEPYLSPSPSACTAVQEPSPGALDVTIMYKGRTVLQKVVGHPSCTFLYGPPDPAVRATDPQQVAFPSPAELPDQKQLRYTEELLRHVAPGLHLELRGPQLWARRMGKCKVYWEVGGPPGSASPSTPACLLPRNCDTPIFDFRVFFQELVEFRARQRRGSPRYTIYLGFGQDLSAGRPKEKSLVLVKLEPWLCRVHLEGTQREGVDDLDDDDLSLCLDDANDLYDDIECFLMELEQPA
| Oligonucleotide | fitted relative affinity [z-score] |
| --- | --- |
| GACGGCATCGGTTTCGGGAC | 2.97 |
| GACGGTCCCCTTTTCCTGAC | 1.16 |
| TTCGATATCAGTTTCGATTA | 5.91 |
| TCATTTTTCATTATTGTACT | 2.82 |
| GACGGTTCCCTTTTCCCGAC | 2.72 |
| CTCAGGTAATATTTCCTGCT | 0.325 |

Further values, each from its own experiment
| Substance | target | assay | test system | setting | scale | endpoint | result |
| --- | --- | --- | --- | --- | --- | --- | --- |
| PhoQ, residues 284 288 289 292 302 303 SLCLSL | PhoP, residues 12 14 15 18 19 NYFTV (Escherichia coli, UniProt P23836) | Sort-seq, measured: YFP reporter | E. coli | PhoQ-PhoP variant library, added: 10 µM Mg2+ | baseline: high Mg2+ state, higher = stronger signaling | fold induction | 9 |

For quick reference, copied from above (series 2):
| Oligonucleotide | RBNS enrichment (R) |
| --- | --- |
| UAAGAAGUAAAAUACAUCAGCAGAUUUUCAUACUAGUAUGUUGUAAUGCUGUCUUUUCUAUGGUGUAGAAUCUUUCUUUCUGAUAAGGAACGUCUCAGGCUUAGAAAUAU | 0.504 |
| UUUCCUUUGUACUUUAAAAAAAAGUAUGCUAGCACUAUUGUACCUUGAAAGGAUUUCCACCAGACUGUCUUGAGUAGUGACUUCUUUGGUGAGGCAAGAAGGAUAUACAU | 10.4 |
